# Results collected from several papers.
# Protocols differ between the studies behind these lines. “And” joins repeats or separate records; there may be more than shown. Numbers after ± are the reported error.
# Uncharacterized hydrolase SAUSA300_2518: Uncharacterized hydrolase SAUSA300_2518 (Staphylococcus aureus, UniProt Q2FDS6)
# sdiA: Regulatory protein SdiA (sdiA, Escherichia coli, UniProt P07026)
# Oprm1: Mu-type opioid receptor (Oprm1, Rattus norvegicus, UniProt P33535)
# PIM1: Serine/threonine-protein kinase pim-1 (PIM1, Homo sapiens, UniProt P11309)
# lasR: Transcriptional activator protein LasR (lasR, Pseudomonas aeruginosa, UniProt P25084)
SMILES,target,assay,test system,conditions,scale,measurement,result
CCc1nnc(-c2c(OC)cc(-c3cnc4cc(-c5cnn(C)c5)ccn34)cc2OC)o1,"HTR2B (Homo sapiens, UniProt P41595)","agonist radioligand, radioligand binding",,"10 µM, SafetyScreen44 5-HT2B mean",lower = stronger displacement,remaining binding,89.1%
CN(C)[C@H]1C[C@@]23CC[C@@]4(O2)C(=CC[C@]2(C)[C@@H](c5ccc6ccncc6c5)CC[C@H]24)C=C3[C@@H](O)[C@@H]1O,"CDK11B (Homo sapiens, UniProt P21127)","ATP probe labelling, inhibitor, KiNativ profiling",,0.1 µM,,inhibition,-4.5%
O=S(=O)(F)c1cccc2c1OCC2,Uncharacterized hydrolase SAUSA300_2518,"enzyme activity, inhibitor, fluorogenic substrate",,0.1 µM,,remaining activity,109% and 111%
CC[C@H](C)[C@H](NC(=O)[C@H](CCCNC(=N)N)NC(=O)[C@H](CCCNC(=N)N)NC(=O)[C@H](CC(C)C)NC(=O)[C@H](Cc1ccccc1)NC(=O)CNC(=O)CNC(=O)[C@@H](N)Cc1ccc(O)cc1)C(=O)N[C@@H](CCCNC(=N)N)C(=O)N1CCC[C@H]1C(=O)N[C@@H](CCCCN)C(=O)N[C@@H](CC(C)C)C(=O)N[C@@H](CCCCN)C(=O)O,"GPR139 (Homo sapiens, UniProt Q6DWJ6)","Gαz activation, agonist, BRET",HEK293T/17,40 µM,,Emax,8% and 9.23%
Cn1ncc2c(Nc3ccccc3Cl)nc(Nc3ccccc3Cl)nc21,"Tumor susceptibility gene 101 protein (Homo sapiens, UniProt Q99816)",thermal stability,,800 µM,,ΔTm,6 °C
CCCCCC(=O)N[C@H]1CCSC1=O,sdiA,,,,,Emax,113%
CCCC[C@H]1CNCCN1C[C@@H]1CCCN1C[C@@H](Cc1ccc2ccccc2c1)N1CCN(CCCC2CCCC2)[C@H]([C@H](C)CC)C1,Oprm1,radioligand binding,rat brain membranes,"500 nM, pH 7.5, 25 °C, with: 0.87 nM [3H]DAMGO",,remaining binding,107 ± 7.04%
O=C(Nc1ccncc1)c1ccccc1OS(=O)(=O)F,Uncharacterized hydrolase SAUSA300_2518,"enzyme activity, inhibitor, fluorogenic substrate",,1 µM,,remaining activity,68.9% and 61.7% and 72.8%
CN(C)CCCSC(=S)N1CCN(C(=O)/C=C/c2coc3ccccc3c2=O)CC1,"Nucleoprotein (N, Tomato spotted wilt virus, UniProt P25999, R94A)","binding, microscale thermophoresis",,0.9766 µM,dose series,MST response,842 a.u.
CC(C)[C@@H]1NC(=O)[C@H](CC(N)=O)NC(=O)CNC(=O)[C@H](CC(N)=O)NC(=O)[C@H](C)NC(=O)[C@H](CC(=O)O)NC(=O)[C@H]([C@@H](C)O)NC(=O)[C@H](CCC(=O)O)NC(=O)CNC(=O)[C@H]([C@@H](C)O)NC(=O)[C@H](CCC(=O)O)NC(=O)[C@H](CCC(=O)O)NC(=O)[C@H](CC(=O)O)NC1=O,"KEAP1 (Homo sapiens, UniProt Q14145)","Keap1-Nrf2 binding, inhibitor, competitive FP",,"0.0061 µM, 30 min, with: Nrf2 peptide probe",lower = stronger inhibition,fluorescence polarization,0.98 a.u. and 1.02 a.u.
CCOC(=O)[C@@H]1Cc2c(cc([N+](=O)[O-])cc2[N+](=O)[O-])[C@H](O)[C@]12C(=O)Nc1ccc(Br)cc12,PIM1,"binding, competition with immobilised ligand",,0.1 µM,,remaining binding,41%
O=C(Cc1cccc(Cl)c1)N[C@H]1CCOC1=O,sdiA,,,,,Emax,108%
O=C(CCc1ccc(Br)cc1)N[C@H]1CCOC1=O,lasR,"plasI-LVAgfp reporter, agonist",,,baseline: pump-active over pump-mutant,EC50 ratio,> 8.3
O=C(O)c1ccc(-c2nc(-c3ccccc3Cl)c3sccn23)cc1,"Maoa (Rattus norvegicus, UniProt P21396)","radioligand binding, safety screen panel",,10 µM,baseline: control,specific binding,93% and 97%
CC(C)CC(O)(CC(C)C)c1cn(C(=O)N2CCCC2)nn1,"Phospholipase ABHD3 (Abhd3, Mus musculus, UniProt Q91ZH7)","probe labelling, inhibitor, measured: Abhd3","mouse, brain","i.p., 0.8 mg/kg, 4 h, single peptide","baseline: treated over vehicle mice, lower = stronger inhibition",activity ratio-of-ratios,0.52 and 0.6 and 0.59 and 0.63 and 0.67
CS(C)(=O)=Nc1ccc(-c2ccc(-c3nc4cc(O[C@@H]5CO[C@H]6[C@@H]5OC[C@H]6O)[nH]c4cc3F)cc2)cc1,"DYRK1B (Homo sapiens, UniProt Q9Y463)","enzyme activity, inhibitor",,10 µM,,inhibition,2%
CCCC[C@H]1CNCCN1C[C@@H]1CCCN1C[C@@H](Cc1ccc2ccccc2c1)N1CCN(CCC23CC4CC(CC(C4)C2)C3)[C@H](Cc2ccc(O)cc2)C1,Oprm1,radioligand binding,rat brain membranes,"500 nM, pH 7.5, 25 °C, with: 0.87 nM [3H]DAMGO",,remaining binding,93.2 ± 6.67%
O=C(NCc1cc(Br)cc(Br)c1OC(=O)c1ccccc1[N+](=O)[O-])c1ccccc1Cl,lasR,"reporter gene, agonist",Pseudomonas aeruginosa PAO-JP2,"100 µM, plasI-LVAgfp reporter",baseline: OdDHL at same concentration,agonist activity,104%
COCC1CCCCN1C(=O)n1cc(C(O)(c2ccccc2)c2ccccc2)nn1 (stereo not shown),"Pnpla8 (Mus musculus, UniProt Q8K1N1)","probe labelling, inhibitor, competitive ABPP-SILAC",mouse T cells,"concentration not given, 4 h, single peptide","baseline: treated over DMSO cells, lower = stronger inhibition",SILAC activity ratio,1.28 and 1.31
COC(=O)[C@@H](NC(=O)c1nn(Cc2ccc(F)cc2)c2cc(OCCCCNC(=N)N)ccc12)C(C)(C)C,"Cannabinoid receptor 1, with Gi3 (CNR1, Homo sapiens, UniProt P21554)","GTP turnover, agonist, measured: Gi3 Gα subtype",,,,maximal efficacy,144%
N=C(N)NCc1cn([C@@H]2[C@@H](OCCCl)O[C@H](CO)[C@@H](O)[C@@H]2O)nn1,"C-type lectin domain family 4 member M, extracellular domain (CLEC4M, Homo sapiens, UniProt Q9H2X3)",isothermal titration calorimetry,,,,-TΔS,20.9 kJ/mol and 17.1 kJ/mol and 20.4 kJ/mol
O=C(Cc1ccc(Br)cc1)N[C@H]1CCOC1=O,lasR,"reporter gene, agonist",Pseudomonas aeruginosa PAO-JP2,"100 µM, plasI-LVAgfp reporter",baseline: OdDHL at same concentration,agonist activity,-1%
O=C1NC(=O)c2c1c1cc(F)c[n+]3c1c1c2c2cc(O)ccc2[n]1[Ru-4]312([N]=C=S)[S+]3CC[S+]1CC[S+]2CC3 (stereo not shown),"EPHA3 (Homo sapiens, UniProt P29320)",enzyme activity,,"100 nM, human enzyme, with: 10 µM ATP",baseline: untreated,remaining activity,110%
C[C@H](NCc1ccc(-c2ccc(C(F)(F)F)cc2)cc1)C(N)=O,PIM1,"cell-free assay, competition with immobilised ligand",,1 µM,,inhibition,0%
CCn1nc(Cl)c2c1-c1cnc(N)c(c1)O[C@H](C)c1cc(F)ccc1-c1nn(C)cc1C2,"INSRR (Homo sapiens, UniProt P14616)","kinase activity, inhibitor",,,baseline: IC50 INSRR over IC50 ALK,selectivity ratio,231 fold
CCCCCCCCCC(=O)CC(=O)Nc1ccccc1,lasR,"reporter gene, agonist",Escherichia coli JLD271,"10 µM, pSC11 and pJN105L plasmids",baseline: OdDHL at same concentration,agonist activity,30%
CC(=O)N[C@@H](CCC(N)=O)C(=O)N[C@@H](CC1CCCCC1)C(=O)N[C@@H](CNC(=O)CCl)C(=O)N[C@@H](CC(C)C)C(=O)N[C@@H](Cc1ccccc1)C(=O)O,"Beta sliding clamp (Escherichia coli, UniProt P0A988)","binding, isothermal titration calorimetry",,22 °C,,ΔG,-9.31 kcal/mol
CCNC(=S)NN=Cc1c2ccccc2cc2ccccc12.Cc1ccc(C(C)C)cc1.[Cl-].[Cl-].[Ru+2],"Albumin (ALB, Homo sapiens, UniProt P02768)","binding, van't Hoff, Scatchard",,concentration not given,,entropy change (ΔS°),239 J/mol/K
N[C@H](C(=O)N1CCCC1)C1CCN(c2nccc3c(-c4ncc(Cl)cc4Cl)cccc23)CC1,"PADI3 (Homo sapiens, UniProt Q9ULW8)",enzyme activity,,"0.01573 µM, with: Ca2+ 0.25 mM",,kcat,0.0959 s⁻¹ and 0.103 s⁻¹
COc1ccccc1-c1n[nH]c2nc(N[C@H]3CC[C@H](NS(=O)(=O)CC(C)C)CC3)ncc12,"cdc2-related kinase 12 (Leishmania donovani, UniProt A0A3S7WQK2)",kinobead competition pull-down,"Leishmania donovani, cell extract","0.016 µM, unit not given",baseline: vehicle,remaining binding,0.11
CC(C)[C@H]1NC(=O)C[C@H]2/C=C/CCSSC[C@@H](NC1=O)C(=O)N[C@H](Cc1cccc3ccccc13)C(=O)NCC(=O)O2,"MAPK7 (Homo sapiens, UniProt Q13164)","enzyme activity, inhibitor",,10 µM,,inhibition,3.9%

# Excerpt of the above:
SMILES,target,assay,test system,conditions,scale,measurement,result
COC(=O)[C@@H](NC(=O)c1nn(Cc2ccc(F)cc2)c2cc(OCCCCNC(=N)N)ccc12)C(C)(C)C,"Cannabinoid receptor 1, with Gi3 (CNR1, Homo sapiens, UniProt P21554)","GTP turnover, agonist, measured: Gi3 Gα subtype",,,,maximal efficacy,144%
CC(C)[C@H]1NC(=O)C[C@H]2/C=C/CCSSC[C@@H](NC1=O)C(=O)N[C@H](Cc1cccc3ccccc13)C(=O)NCC(=O)O2,"MAPK7 (Homo sapiens, UniProt Q13164)","enzyme activity, inhibitor",,10 µM,,inhibition,3.9%
CCCC[C@H]1CNCCN1C[C@@H]1CCCN1C[C@@H](Cc1ccc2ccccc2c1)N1CCN(CCC23CC4CC(CC(C4)C2)C3)[C@H](Cc2ccc(O)cc2)C1,Oprm1,radioligand binding,rat brain membranes,"500 nM, pH 7.5, 25 °C, with: 0.87 nM [3H]DAMGO",,remaining binding,93.2 ± 6.67%
O=S(=O)(F)c1cccc2c1OCC2,Uncharacterized hydrolase SAUSA300_2518,"enzyme activity, inhibitor, fluorogenic substrate",,0.1 µM,,remaining activity,109% and 111%
O=C(O)c1ccc(-c2nc(-c3ccccc3Cl)c3sccn23)cc1,"Maoa (Rattus norvegicus, UniProt P21396)","radioligand binding, safety screen panel",,10 µM,baseline: control,specific binding,93% and 97%
